Assay results of several laboratories.
Parts stem from different laboratories: compare values within a part only.

Study 1
Target: RING finger protein unkempt homolog, zinc fingers 1-6, GST-SBP tag (UNK, Homo sapiens, UniProt Q9C0B0, residues 30-357)
Technique: RNA Bind-n-Seq
Molecule type: RNA
Medium: in vitro
Concentration: not given
Notes: RNA with constant flanks, human-mouse chimeric sites, ends assumed
Reference: input RNA pool
Direction: higher = stronger binding
Constant ends, left off below: GGGAGUUCUACAGUCCGACGAUC … CAACAGAGGAUUGAGCAUCA
Target sequence (chain): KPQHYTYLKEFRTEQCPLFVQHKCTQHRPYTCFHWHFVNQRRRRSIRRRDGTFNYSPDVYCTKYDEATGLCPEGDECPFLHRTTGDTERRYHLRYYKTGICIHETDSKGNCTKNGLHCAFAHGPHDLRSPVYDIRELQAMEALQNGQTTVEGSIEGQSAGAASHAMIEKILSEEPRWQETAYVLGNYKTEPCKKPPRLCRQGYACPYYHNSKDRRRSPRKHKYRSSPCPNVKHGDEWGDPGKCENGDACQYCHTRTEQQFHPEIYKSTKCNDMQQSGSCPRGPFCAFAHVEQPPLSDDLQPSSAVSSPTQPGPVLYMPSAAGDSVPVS
`GAAUCCUCCCGUGCAAAAUUUUGCAACACCAAGCUCACAGCAGCAGCAUCUUAGUCACAGUAGGGUAGUUUUGGGGCUCUGUGGCCAGGGUUUUAUUCACAUGCAGGUUUUGAAAAUGUA` has a bound/input enrichment of 1.94 ratio.
With `AGAAUCUUGGGACUGUUUUACUUAAUUGGUCAUUGAUAGCUUAACAAACAUGGAGAUGAGAUUAGAAAUCUUGACAUCAACAGGUAUUAAGCAGAAAAAACCAUGGCCCAGAGUAUCCUG` the bound/input enrichment was 0.133 ratio.
For `UACUACUGAAUCUGUGAUAUUGGCAAUUAUUAUUAUGGCCAGGGUCAUCCCAUGAAGCCUCAUAGAAUCCGGAUGACUCAUAACUUGCUGUUAAAUUAUGGUUUAUACCGAAAAAUGGAA`, the bound/input enrichment was 0.266 ratio.
For `CACACACUCUUCUGCGGGACCCUCAUCUUGCAGGCCCGGGCCUAUGUGGGACCGCACGUCCUGGCAGUGGUGACCCGGACAGGGUUCUGCACAGCCAAAGGGGGCCUGGUGAGCUCCAUC`, the bound/input enrichment was 0.0471 ratio.
`AGAUUCCCCCUCCUGAGACCUCCUCCGAAGUUGGAGUCUCUUAUAGAUGCCUCAUCCCCUGUUAGCGUUUUAGUUUGGACCACCCAGCCUUGGACAAUUCCAGCCAACCAGGCAAUUUGC` gave a bound/input enrichment of 2.19 ratio.
With `UUUGUAUUUAUGCUAAGCACGCGUGCUGGUGGUCUGGGCAUCAAUCUUGCAACUGCUGAUGUAGUAAUUUUAUAUGACUCAGAUUGGAAUCCGCAAGUUGAUCUUCAGGCUAUGGACCGU` the bound/input enrichment was 0.407 ratio.
`AUGGAGAAGGAUUCUCUGCCCCGCUUUGUGCGCUCUGAAUUUUAUAAGGAGUUAAUCAAGUAGUCAUCUGGUCAGGCUUCCAAAAGUUGCCCUGUGAGUUGAGUUACAUAAUAACCCGCA` gave a bound/input enrichment of 0.143 ratio.
`GCCACCAAUUCCAGCCAACAUGACCCUUGCUGCCUACAAAGAGAAGAUGAAGGAGCUCCCGCUGGUGUCCUUGUUCUGCUCCUGCUUCCUGGCCGAUCCCCUGAAUAAGUCGUCCUACAA` has a bound/input enrichment of 0.37 ratio.

Study 2
Target: Histone acetyltransferase KAT6A, winged helix 2, GST fusion (KAT6A, Homo sapiens, UniProt Q92794, residues 85-181)
Technique: protein binding microarray
Molecule type: double-stranded DNA, one strand shown
Medium: in vitro
Concentration: not given
Notes: 8-mer, flanks averaged, mean of 2 arrays, mostly near background
Reference: not given
Direction: higher = stronger binding
Residues (chain): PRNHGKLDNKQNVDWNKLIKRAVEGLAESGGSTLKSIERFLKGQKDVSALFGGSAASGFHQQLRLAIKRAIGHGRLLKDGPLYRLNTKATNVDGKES
`CAGCCATG` has an E-score of 0.00456.
`GAAGAAGA` gave an E-score of 0.127.
`AGAGCTGC` has an E-score of -0.0892.
`ACGCACAG` has an E-score of 0.0756.
With `CGTTCATC` the E-score was 0.134.
The E-score of `GCCCGGGC` is reported as 0.206.
`GCCAAGGA` gave an E-score of -0.175.
The E-score of `CTGGGTCC` is reported as -0.0256.
`AGCATAGC` has an E-score of -0.0287.
With `GGTTCGGA` the E-score was 0.0575.
The E-score of `ATTCAGTC` is reported as -0.0553.
`ATCGGAAT` has an E-score of -0.0064.
`TACGGTCA` has an E-score of 0.000275.
`ACGCCTAG` gave an E-score of 0.0135.
For `CTCTAGGA`, the E-score was -0.0631.
`AACTGTGG` has an E-score of -0.00356.

Study 3
Target: Ras GTPase-activating protein-binding protein 1, C-terminal RGG region (G3BP1, Homo sapiens, UniProt Q13283)
Chain of UniProt Q13283 (whole entry, looked up): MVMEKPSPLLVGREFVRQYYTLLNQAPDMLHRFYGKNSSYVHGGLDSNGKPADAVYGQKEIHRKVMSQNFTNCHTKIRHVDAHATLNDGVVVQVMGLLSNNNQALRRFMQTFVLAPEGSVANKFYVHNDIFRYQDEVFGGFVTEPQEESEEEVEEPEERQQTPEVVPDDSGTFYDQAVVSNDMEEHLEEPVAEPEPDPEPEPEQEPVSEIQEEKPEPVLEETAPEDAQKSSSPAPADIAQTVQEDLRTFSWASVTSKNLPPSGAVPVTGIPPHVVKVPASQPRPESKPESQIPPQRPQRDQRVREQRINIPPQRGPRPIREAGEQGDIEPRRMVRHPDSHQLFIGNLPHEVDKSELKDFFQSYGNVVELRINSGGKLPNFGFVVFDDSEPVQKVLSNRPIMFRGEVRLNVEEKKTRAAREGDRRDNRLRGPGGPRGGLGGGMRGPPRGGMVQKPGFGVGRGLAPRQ
Technique: RNA Bind-n-Seq
Molecule type: RNA
Medium: in vitro
Concentration: 1 µM
Notes: whole 134-nt RNA, ends assumed
With: 150 mM KCl
Reference: input library
Direction: higher = stronger binding
Constant ends, left off below: GGGAGUUCUACAGUCCGACGAUC … UGGAAUUCUCGGGUGUCAAGG
`UCCUGUGCUACACAUCGUAUGUACCGAAUCGGGUUUUUGGGUUUUUGGGAAAAAAAGGGAAAGUAUUAUGUUACGCCGUUCGGAUCUGCA` has a log2 enrichment of -0.674.
For `UCAUUGCAUGAAAAGUGGAAAAGUUUAGAUCUAUGGAAACAGAACUGUUGCCUAUAUGGAAAAUCAGUGCCUUGUGGCAAUACAGGUAAG`, the log2 enrichment was -2.31.
With `UAUGAGGAUGAGUUGGUGCCCCUUUUUGAGAAGGCCGGACCCAUUUGGGAUCUACGUCUUAUGAUGGAUCCACUGUCCGGUCAGAAUAGA` the log2 enrichment was -0.814.
`UCCUAGUAUUCUGGCCGUUCAGAGAUCUGCAAUCCUCAAGAAGCAGCAACAGCAGCAGCAGCAACAACAACAUCAAGCCUCAUCUAAUAG` gave a log2 enrichment of -0.626.
With `UCCUGUGCUACACAUCGUAUGUACCGAAUCGGGGUUUUUUUGGGGAAAGGGGUUUGGGGAAAGUAUUAUGUUACGCCGUUCGGAUCUGCA` the log2 enrichment was 1.8.
`AACUAAUACUCUUAAAUGGUCUUUCAGUAUAGUGGUUCUUACGUAGUUUAACAUAGCUAUAAAUUGAGUUUAACAAUUUAUAAACUCAAG` has a log2 enrichment of -1.23.
With `AGUCCUGUGCUACACAUCGUAUGUACCGAAUCAAACCCAAACCCCCCCAAACCCAAAAAAGUAUUAUGUUACGCCGUUCGGAUCUGCACU` the log2 enrichment was -1.25.
For `UGGCAGAGAAAUUGCAGCUGCAGGAGCAGCUCCAGGCAGAAACCGAGCUGUGUGCCGAGGCUGAGGAGCUCCGGGCCCGCCUGACCGCCA`, the log2 enrichment was -0.717.
`UAACUUUAGAGGAGGAUCUGAUGGAUAUGGCAGUGGACGUGGAUUUGGGGAUGGCUAUAAUGGGUAUGGAGGAGGACCUGGAGGUGGCAA` has a log2 enrichment of -0.82.

Study 4
Target: Interferon regulatory factor 7, full length, phosphomimetic (IRF7, Homo sapiens, UniProt Q92985, residues 1-503, S471D/S472D/S475D/S476D/S477D/S483D/S484D/S487D)
Chain of UniProt Q92985 (whole entry, unmodified, looked up): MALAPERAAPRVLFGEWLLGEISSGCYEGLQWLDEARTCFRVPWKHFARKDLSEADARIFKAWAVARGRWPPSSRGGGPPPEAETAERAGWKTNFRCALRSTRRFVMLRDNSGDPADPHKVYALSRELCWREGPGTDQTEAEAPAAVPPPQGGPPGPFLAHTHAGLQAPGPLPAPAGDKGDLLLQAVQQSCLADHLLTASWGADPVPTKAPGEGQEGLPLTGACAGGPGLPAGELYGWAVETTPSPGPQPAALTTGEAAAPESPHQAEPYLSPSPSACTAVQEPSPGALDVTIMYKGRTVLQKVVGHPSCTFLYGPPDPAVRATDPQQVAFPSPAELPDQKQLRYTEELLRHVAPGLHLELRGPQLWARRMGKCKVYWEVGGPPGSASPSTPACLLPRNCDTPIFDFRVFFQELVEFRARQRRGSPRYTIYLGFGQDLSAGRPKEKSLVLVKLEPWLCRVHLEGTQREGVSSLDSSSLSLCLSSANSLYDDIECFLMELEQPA
Technique: protein-binding microarray
Molecule type: double-stranded DNA, one strand shown
Medium: in vitro
Concentration: 2200 nM top
Notes: 60-bp whole probe
With: salmon DNA 0.4 mg/ml
Reference: random background probes
Direction: higher = stronger binding
Constant ends, left off below: GCCTAGCAC … GTCTTGATTCGCTTGACGCTGCTG
For `TTAGCTATCCTTTTCCTTTAGTGCTAG`, “fitted relative affinity” read 1.88 z-score.
`ACCCTCATTCTACTATCGATGTGCTAG`: “fitted relative affinity” 2.33 z-score.
`GACGGTCTGGGACTGGGGACGTGCTAG` — result for “fitted relative affinity”: -0.747 z-score.
For `GACGGTCTCGGTTTCGGGATGTGCTAG`, “fitted relative affinity” read 4.77 z-score.
`TCATTTGTTTCACTTCCTACTGTGCTA` — result for “fitted relative affinity”: 4.41 z-score.
Under “fitted relative affinity”, `TTATAACTGAGTATCGATTAGTGCTAG` is recorded as -0.124 z-score.
Under “fitted relative affinity”, `TCATGTATGAGCCTCTGACTGTGCTAG` is recorded as 0.83 z-score.
Under “fitted relative affinity”, `TTAGGTATAGGACTGGGTTAGTGCTAG` is recorded as -0.294 z-score.
For `GACGGTTCCCTTTTCCTTACGTGCTAG`, “fitted relative affinity” read 2.9 z-score.
`TACTTTCTTTTTTTCTTTTAGTGCTAG` — result for “fitted relative affinity”: 12.7 z-score.
For `TCATTTTTCTATATGCAACTGTGCTAG`, “fitted relative affinity” read 3.06 z-score.
Under “fitted relative affinity”, `GACGATATCGGGACTGGCGACGTGCTA` is recorded as -0.317 z-score.
For `GGGCATTTTTTTATCAATCAGTGCTAG`, “fitted relative affinity” read -0.231 z-score.
For `GTCGAACTGAGACTGGAGACGTGCTAG`, “fitted relative affinity” read 0.023 z-score.
For `CTAGATCTCAGACTGGATTAGTGCTAG`, “fitted relative affinity” read 0.19 z-score.
For `CTGGGCAGGATGAGTTCCAGGTGCTAG`, “fitted relative affinity” read -1.35 z-score.
`TTAGCACTGGGGTATCGATTAGTGCTA`: “fitted relative affinity” -0.168 z-score.
Under “fitted relative affinity”, `AAATCTAAAAAGTCTCTGGGAGTGCTA` is recorded as -1.03 z-score.
Under “fitted relative affinity”, `GACGGACTGGACTTTCTGGACGTGCTA` is recorded as 0.25 z-score.

A few entries again (study 4):
Under “fitted relative affinity”, `TTATAACTGAGTATCGATTAGTGCTAG` is recorded as -0.124 z-score.
`TTAGCACTGGGGTATCGATTAGTGCTA`: “fitted relative affinity” -0.168 z-score.
Under “fitted relative affinity”, `TTAGGTATAGGACTGGGTTAGTGCTAG` is recorded as -0.294 z-score.
`TCATTTGTTTCACTTCCTACTGTGCTA` — result for “fitted relative affinity”: 4.41 z-score.
For `TCATTTTTCTATATGCAACTGTGCTAG`, “fitted relative affinity” read 3.06 z-score.
